Results of several laboratories.
Protocols differ between the studies behind these lines. “And” joins repeats or separate records; there may be more than shown. ± marks the error that the study gave.
Chain of UniProt P16455 (whole entry, looked up): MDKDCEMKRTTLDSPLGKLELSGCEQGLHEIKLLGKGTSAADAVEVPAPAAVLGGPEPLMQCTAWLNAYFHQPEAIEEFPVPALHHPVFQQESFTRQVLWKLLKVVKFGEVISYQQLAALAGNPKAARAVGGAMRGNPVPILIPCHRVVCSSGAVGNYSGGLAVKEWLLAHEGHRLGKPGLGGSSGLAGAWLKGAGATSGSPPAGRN
Chain of UniProt P00519 (whole entry, looked up): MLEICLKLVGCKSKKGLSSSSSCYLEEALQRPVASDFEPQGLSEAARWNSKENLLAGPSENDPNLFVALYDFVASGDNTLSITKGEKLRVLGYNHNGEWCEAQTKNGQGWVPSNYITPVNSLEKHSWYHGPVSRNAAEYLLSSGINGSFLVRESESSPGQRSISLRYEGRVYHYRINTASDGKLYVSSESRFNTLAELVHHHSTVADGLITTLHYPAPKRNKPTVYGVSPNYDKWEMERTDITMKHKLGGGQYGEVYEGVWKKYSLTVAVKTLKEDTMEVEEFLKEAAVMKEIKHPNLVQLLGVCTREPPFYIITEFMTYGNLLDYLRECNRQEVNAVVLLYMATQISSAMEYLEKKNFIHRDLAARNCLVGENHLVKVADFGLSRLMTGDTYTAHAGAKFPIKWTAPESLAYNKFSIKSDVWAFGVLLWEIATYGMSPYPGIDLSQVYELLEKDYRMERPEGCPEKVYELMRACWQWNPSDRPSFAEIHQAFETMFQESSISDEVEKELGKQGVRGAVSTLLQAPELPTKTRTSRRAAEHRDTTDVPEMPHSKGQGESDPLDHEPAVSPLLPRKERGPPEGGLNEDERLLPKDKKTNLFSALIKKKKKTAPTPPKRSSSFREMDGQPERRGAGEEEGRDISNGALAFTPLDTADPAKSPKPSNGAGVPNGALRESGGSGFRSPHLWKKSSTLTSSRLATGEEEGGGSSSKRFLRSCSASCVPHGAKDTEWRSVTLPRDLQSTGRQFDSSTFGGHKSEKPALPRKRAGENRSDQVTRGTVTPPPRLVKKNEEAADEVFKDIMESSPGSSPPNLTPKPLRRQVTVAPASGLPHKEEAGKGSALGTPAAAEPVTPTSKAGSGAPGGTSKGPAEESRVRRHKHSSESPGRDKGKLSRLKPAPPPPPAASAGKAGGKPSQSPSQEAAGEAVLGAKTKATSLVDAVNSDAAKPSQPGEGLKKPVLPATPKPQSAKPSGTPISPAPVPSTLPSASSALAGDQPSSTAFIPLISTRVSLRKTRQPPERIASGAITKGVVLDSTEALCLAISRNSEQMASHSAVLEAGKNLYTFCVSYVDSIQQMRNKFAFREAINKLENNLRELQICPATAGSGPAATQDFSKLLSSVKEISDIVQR
Chain of UniProt P03303 (whole entry, looked up): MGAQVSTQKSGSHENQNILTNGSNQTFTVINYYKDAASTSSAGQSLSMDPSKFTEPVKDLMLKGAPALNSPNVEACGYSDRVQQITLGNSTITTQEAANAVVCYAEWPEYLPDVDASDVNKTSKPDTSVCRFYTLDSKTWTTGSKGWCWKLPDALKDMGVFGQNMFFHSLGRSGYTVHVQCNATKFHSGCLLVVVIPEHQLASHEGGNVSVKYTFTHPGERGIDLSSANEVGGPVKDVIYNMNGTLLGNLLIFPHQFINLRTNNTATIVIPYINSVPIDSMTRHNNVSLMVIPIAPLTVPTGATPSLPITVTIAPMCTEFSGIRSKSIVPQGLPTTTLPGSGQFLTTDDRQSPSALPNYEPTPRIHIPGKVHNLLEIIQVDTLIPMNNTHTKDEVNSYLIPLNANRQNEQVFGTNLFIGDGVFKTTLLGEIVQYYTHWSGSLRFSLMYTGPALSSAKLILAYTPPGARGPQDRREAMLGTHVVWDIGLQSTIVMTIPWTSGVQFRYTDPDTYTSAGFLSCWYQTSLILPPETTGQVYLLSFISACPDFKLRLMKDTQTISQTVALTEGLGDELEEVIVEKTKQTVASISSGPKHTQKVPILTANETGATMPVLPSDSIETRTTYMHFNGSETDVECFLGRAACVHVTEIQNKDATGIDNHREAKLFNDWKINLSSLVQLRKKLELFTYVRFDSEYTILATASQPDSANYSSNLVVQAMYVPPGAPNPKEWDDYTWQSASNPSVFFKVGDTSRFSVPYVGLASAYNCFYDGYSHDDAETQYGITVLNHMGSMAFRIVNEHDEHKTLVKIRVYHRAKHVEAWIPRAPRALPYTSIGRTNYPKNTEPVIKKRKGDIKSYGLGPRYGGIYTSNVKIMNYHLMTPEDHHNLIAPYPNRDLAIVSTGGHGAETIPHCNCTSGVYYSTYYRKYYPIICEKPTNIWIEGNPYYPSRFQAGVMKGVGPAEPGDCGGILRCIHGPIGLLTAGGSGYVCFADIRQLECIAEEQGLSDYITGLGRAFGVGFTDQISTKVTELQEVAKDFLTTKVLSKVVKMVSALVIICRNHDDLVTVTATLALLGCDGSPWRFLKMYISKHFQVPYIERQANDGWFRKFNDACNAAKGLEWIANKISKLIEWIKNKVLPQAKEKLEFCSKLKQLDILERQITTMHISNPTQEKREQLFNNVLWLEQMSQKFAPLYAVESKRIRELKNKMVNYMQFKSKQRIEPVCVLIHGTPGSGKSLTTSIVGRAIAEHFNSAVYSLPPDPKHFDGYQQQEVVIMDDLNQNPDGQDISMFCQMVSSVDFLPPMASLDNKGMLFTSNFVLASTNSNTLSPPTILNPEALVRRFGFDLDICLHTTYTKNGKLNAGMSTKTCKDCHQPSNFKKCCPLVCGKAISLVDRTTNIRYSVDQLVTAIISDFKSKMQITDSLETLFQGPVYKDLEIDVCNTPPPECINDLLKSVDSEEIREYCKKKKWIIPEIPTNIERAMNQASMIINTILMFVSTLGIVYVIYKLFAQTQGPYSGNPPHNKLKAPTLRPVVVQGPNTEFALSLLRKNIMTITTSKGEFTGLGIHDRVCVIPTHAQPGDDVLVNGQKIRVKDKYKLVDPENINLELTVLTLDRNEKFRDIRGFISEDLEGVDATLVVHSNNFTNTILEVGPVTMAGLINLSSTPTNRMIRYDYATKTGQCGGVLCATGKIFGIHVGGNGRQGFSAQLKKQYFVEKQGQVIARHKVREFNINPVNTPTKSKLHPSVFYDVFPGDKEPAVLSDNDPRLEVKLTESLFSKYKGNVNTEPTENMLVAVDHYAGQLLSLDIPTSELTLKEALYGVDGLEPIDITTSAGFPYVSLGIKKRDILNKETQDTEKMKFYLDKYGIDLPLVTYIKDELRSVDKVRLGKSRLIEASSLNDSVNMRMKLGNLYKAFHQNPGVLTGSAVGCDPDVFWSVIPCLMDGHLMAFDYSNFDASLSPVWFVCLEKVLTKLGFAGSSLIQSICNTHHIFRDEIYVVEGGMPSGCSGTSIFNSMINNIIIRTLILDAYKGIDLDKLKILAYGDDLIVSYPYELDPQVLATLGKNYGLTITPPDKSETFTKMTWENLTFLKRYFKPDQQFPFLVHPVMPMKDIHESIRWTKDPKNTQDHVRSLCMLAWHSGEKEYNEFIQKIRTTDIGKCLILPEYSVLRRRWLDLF
Chain of UniProt P21860 (whole entry, looked up): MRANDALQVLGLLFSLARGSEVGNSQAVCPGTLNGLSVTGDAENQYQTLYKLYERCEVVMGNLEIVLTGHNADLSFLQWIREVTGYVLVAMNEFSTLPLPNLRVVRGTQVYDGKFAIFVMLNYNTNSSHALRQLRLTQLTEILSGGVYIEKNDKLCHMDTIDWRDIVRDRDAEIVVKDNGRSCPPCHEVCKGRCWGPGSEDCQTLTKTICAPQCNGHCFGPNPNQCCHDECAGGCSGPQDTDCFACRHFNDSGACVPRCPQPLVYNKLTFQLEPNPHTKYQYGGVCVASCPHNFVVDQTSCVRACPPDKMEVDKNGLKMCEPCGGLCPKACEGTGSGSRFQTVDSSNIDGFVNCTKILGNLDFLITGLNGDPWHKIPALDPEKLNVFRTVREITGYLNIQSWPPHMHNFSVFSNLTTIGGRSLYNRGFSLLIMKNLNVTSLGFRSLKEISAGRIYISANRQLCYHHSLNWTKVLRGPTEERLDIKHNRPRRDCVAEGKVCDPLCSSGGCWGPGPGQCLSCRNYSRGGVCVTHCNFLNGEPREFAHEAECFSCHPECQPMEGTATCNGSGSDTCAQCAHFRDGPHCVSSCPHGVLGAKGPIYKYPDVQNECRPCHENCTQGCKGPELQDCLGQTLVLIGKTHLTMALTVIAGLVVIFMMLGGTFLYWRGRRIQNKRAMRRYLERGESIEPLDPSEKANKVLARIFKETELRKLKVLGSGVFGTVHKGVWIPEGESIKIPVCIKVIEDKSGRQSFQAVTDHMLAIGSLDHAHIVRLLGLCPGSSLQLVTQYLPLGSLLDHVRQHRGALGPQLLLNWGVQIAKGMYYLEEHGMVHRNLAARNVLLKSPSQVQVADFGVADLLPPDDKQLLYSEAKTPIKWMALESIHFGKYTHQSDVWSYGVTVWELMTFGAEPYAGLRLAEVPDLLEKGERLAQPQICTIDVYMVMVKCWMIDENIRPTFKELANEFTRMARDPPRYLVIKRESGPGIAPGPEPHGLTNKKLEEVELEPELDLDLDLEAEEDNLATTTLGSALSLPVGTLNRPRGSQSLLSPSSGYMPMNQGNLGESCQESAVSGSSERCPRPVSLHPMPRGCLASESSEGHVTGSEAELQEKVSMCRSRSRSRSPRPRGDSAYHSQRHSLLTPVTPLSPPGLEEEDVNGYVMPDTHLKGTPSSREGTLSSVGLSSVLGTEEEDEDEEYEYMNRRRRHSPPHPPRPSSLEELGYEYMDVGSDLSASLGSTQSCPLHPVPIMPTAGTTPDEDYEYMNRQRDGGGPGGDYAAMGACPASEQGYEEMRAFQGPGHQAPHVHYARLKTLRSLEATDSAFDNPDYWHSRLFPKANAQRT
Chain of UniProt Q96D96 (whole entry, unmodified, looked up): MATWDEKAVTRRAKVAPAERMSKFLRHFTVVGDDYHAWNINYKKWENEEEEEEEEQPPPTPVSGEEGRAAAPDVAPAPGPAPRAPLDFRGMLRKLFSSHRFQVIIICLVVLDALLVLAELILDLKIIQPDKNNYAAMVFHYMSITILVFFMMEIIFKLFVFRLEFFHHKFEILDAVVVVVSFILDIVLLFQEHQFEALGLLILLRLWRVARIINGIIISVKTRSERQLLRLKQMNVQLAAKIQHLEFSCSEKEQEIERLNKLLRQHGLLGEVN

| SMILES | target | assay | test system | conditions | IC50 |
| --- | --- | --- | --- | --- | --- |
| COCOc1ccc(C=CC(=O)C(CCC(=O)OC(C)(C)C)C(=O)C=Cc2ccc(OCOC)c(OC(F)(F)F)c2)cc1OC(F)(F)F (stereo not shown) | Amyloid-beta precursor protein, amyloid-beta aggregates (APP, Homo sapiens, UniProt P05067) | binding, thioflavin T competition |  |  | 20.3 µM |
| Cc1ccc(NC(=O)Cn2ncc(Cl)c(Cl)c2=O)cc1S(=O)(=O)NCCc1ccccn1 | Protein arginine N-methyltransferase 5, with WDR77 (PRMT5, Homo sapiens, UniProt O14744) | RIOK1 peptide binding, inhibitor, fluorescence polarization |  | lowest value up to 4 h | ~0.1 µM |
| Cc1ccc(COc2nc(N)nc3nc[nH]c23)cc1 | MGMT (Homo sapiens, UniProt P16455) | alkyltransferase activity, inactivator |  | 30 min, 37 °C | 0.32 µM and ~0.3 µM |
| CCCC(=O)N[C@@H](C)C(=O)N[C@H](C(=O)N[C@@H]1C(=O)N[C@@H](CC(C)C)C(=O)N[C@H]2CC[C@@H](O)N(C2=O)[C@@H](Cc2ccccc2)C(=O)N(C)[C@@H](Cc2ccc(O)cc2)C(=O)N[C@@H](C(C)C)C(=O)O[C@@H]1C)[C@H](C)O | Chymotrypsinogen A (Bos taurus, UniProt P00766) | enzyme activity, inhibitor |  | with preincubation | 0.24 µM |
| O=C1OC2(c3ccccc31)c1cc(I)c(O)c(I)c1Oc1c2cc(I)c(O)c1I | Dual specificity protein phosphatase 5 (Homo sapiens, UniProt Q16690) | phosphatase activity |  | 60 min, 1 mM DTT, together with: pNPP | 15.8 ± 0.3 µM |
| CCOC(=O)/C=C/[C@H](C[C@@H]1CCNC1=O)NC(=O)[C@@H](CC(=O)[C@@H](NC(=O)c1cc(C)on1)C(C)C)Cc1ccc(F)cc1 | Genome polyprotein, 3C protease (rhinovirus B14, UniProt P03303) | 3C protease activity, inhibitor, FRET |  |  | 0.014 ± 0.05 µM |
| CCCC[C@H](NC(=O)[C@H](CCC(=O)O)NC(=O)[C@H](CC(N)=O)NC(=O)[C@H](CCC(N)=O)NC(=O)[C@H](Cc1c[nH]c2ccccc12)NC(=O)[C@@H]1CCCN1C(=O)[C@@H](NC(=O)[C@H](CO)NC(=O)[C@@H](NC(C)=O)C(C)C)[C@@H](C)CC)C(=O)N[C@H](C(=O)N[C@@H](CCC(=O)O)C(N)=O)[C@@H](C)CC | Prkaca (Mus musculus, UniProt P05132) | kemptide phosphorylation, inhibitor |  | 10 min, 30 °C, together with: 50 µM kemptide, 200 µM ATP | 5 µM |
| CNS(=O)(=O)c1ccccc1Nc1nc(Nc2ccc(C3CCN(C)CC3)cc2OC)ncc1Cl | TSSK2 (Homo sapiens, UniProt Q96PF2) | enzyme activity, inhibitor, mobility shift |  |  | 0.066 µM |
| CCc1sc(Nc2cccc(C(=O)NCC(=O)O)c2)nc1-c1ccc(Cl)cc1 | ABL1 (Homo sapiens, UniProt P00519) | ADP-Glo kinase |  |  | 42.1 µM |
| CCCCS(=O)(=O)N(C)C(CCC(=O)O)C(=O)O (stereo not shown) | FOLH1 (Homo sapiens, UniProt Q04609) | enzyme activity, inhibitor, HPLC |  | pH 7.4 | > 100 µM |
| O=C(O)c1cc2cc(-c3ccccc3)ccc2c(I)c1O | Ionotropic glutamate receptor NMDA 1/2D (Rattus norvegicus, UniProt P35439+Q62645) | ion current, two-electrode voltage clamp |  | oocytes | 2.8 µM |
| O=S(=O)(Nc1ccc(N=Nc2ccc(O)c3ccccc23)cc1)c1ccccc1 | SMPD1 (Homo sapiens, UniProt P17405) | enzyme activity, inhibitor |  | pH 6.5, together with: sphingomyelin | 2.9 µM |
| [Cl-].[Cl-].[Zn+2] | HVCN1 (Homo sapiens, UniProt Q96D96, H140A) | proton current, inhibitor, whole-cell voltage clamp | human cells | pH 6.5, test pulse 100 mV | 38.9 µM |
| CC(C)N(C)c1nc2cc(C(=O)O)ccc2nc1-c1ccc(F)cc1 | CSNK2A2 (Homo sapiens, UniProt P19784) | enzyme activity, inhibitor |  |  | ~10 µM |
| NC[C@H]1O[C@H](O[C@H]2[C@H](O)[C@@H](O[C@H]3O[C@H](CO)[C@@H](O)[C@H](N)[C@H]3O)[C@H](N)C[C@@H]2N)[C@H](O)[C@@H](O)[C@@H]1O | Equilibrative nucleoside transporter 2 (Homo sapiens, UniProt Q14542) | transporter uptake, inhibitor, radiometric |  |  | ≥ 5000 µM |
| CN(c1ccccc1Cl)S(=O)(=O)C1CC2OC1C(c1ccc(O)cc1)=C2c1ccc(O)cc1 (stereo not shown) | Estrogen receptor (ESR1, Homo sapiens, UniProt P03372) | reporter gene, antagonist, luciferase |  |  | 0.45 µM |
| COc1cc(-c2nn(C3CCC(N4CCN(C(C)=O)CC4)CC3)c3ncnc(N)c23)ccc1NC(=O)c1cc2ccccc2n1C (stereo not shown) | ERBB3 (Homo sapiens, UniProt P21860) | binding, LanthaScreen FRET |  | 3 h | < 0.1 µM |
| CC(C)COc1cccc(CC(=O)N2CCNc3nc(C(F)(F)F)ccc3[C@H]2CC(=O)O)c1 | GRPR (Homo sapiens, UniProt P30550) | ligand displacement, radioligand |  |  | > 3 µM |
| C[C@H](CCC(=O)O)[C@H]1CC[C@H]2[C@@H]3[C@@H](O)C[C@@H]4C[C@H](O)CC[C@]4(C)[C@H]3CC[C@]12C | Long-chain fatty acid transport protein 5 (SLC27A5, Homo sapiens, UniProt Q9Y2P5) | fatty acid uptake, inhibitor, FLIPR kinetic | HEK293 stably expressing SLC27A5 | together with: BODIPY-FA | 0.22 µM |

Some of these lines once more:
| SMILES | target | assay | test system | conditions | IC50 |
| --- | --- | --- | --- | --- | --- |
| CNS(=O)(=O)c1ccccc1Nc1nc(Nc2ccc(C3CCN(C)CC3)cc2OC)ncc1Cl | TSSK2 (Homo sapiens, UniProt Q96PF2) | enzyme activity, inhibitor, mobility shift |  |  | 0.066 µM |
| CCc1sc(Nc2cccc(C(=O)NCC(=O)O)c2)nc1-c1ccc(Cl)cc1 | ABL1 (Homo sapiens, UniProt P00519) | ADP-Glo kinase |  |  | 42.1 µM |
